Measured values of several laboratories.
Numbers after ± are the reported error.

CCCO[C@H]1[C@H](O)[C@@H](N)[C@@H](O[C@H]2[C@H](O[C@@H]3O[C@H](CO)[C@@H](O[C@H]4O[C@@H](CN)[C@@H](O)[C@H](O)[C@H]4N)[C@H]3O)[C@@H](O)[C@H](N)C[C@@H]2N)O[C@@H]1CO  cytotoxicity (NIH 3T3; alamarBlue; concentration not given): not toxic
CC[C@H](C)[C@H](NC(=O)[C@H](CCCCN)NC(=O)[C@H](CC(C)C)NC(=O)[C@H](C)NC(=O)[C@H](CC(C)C)NC(=O)[C@H](CO)NC(=O)[C@H](C)NC(=O)[C@H](CC(C)C)NC(=O)[C@H](Cc1ccccc1)NC(=O)[C@@H]1CCCN1C(=O)[C@H](CC(C)C)NC(=O)[C@H](Cc1ccccc1)NC(=O)[C@H](CCCCN)NC(=O)[C@H](CCCCN)NC(=O)[C@H](CCCCN)NC(=O)[C@H](CCCCN)NC(=O)[C@H](CCCCN)NC(=O)[C@@H](N)CCCCN)C(=O)N[C@@H](CC(C)C)C(N)=O  haemolysis (horse erythrocytes; MIC against Staphylococcus aureus, 2 h, 37 °C; baseline: Triton X-100): 17.8%
CC[C@H](C)[C@H](NC(=O)CNC(=O)[C@H](CCCNC(=N)N)NC(=O)[C@H](CCCCN)NC(=O)CNC(=O)[C@H](CC(N)=O)NC(=O)CNC(=O)CNC(=O)CNC(=O)[C@H](CC(C)C)NC(=O)[C@H](C)NC(=O)CNC(=O)[C@H](Cc1c[nH]c2ccccc12)NC(=O)[C@H](Cc1ccc(O)cc1)NC(=O)CNC(=O)[C@H](CCCNC(=N)N)NC(=O)[C@H](CCSC)NC(=O)CNC(=O)[C@H](CCCCN)NC(=O)[C@H](CC(N)=O)NC(=O)[C@H](Cc1ccccc1)NC(=O)[C@H](CCCCN)NC(=O)[C@@H](N)CC(N)=O)C(=O)N[C@@H](CCSC)C(=O)NCC(=O)N[C@@H](Cc1ccc(O)cc1)C(=O)N[C@@H](CC(=O)O)C(=O)O  cytotoxicity (SK-BR-3; MTT; 1 nM to 10 µM, 24 h): not toxic
COc1c2c(cc3oc(-c4ccccc4)cc(=O)c13)OC(C)(C)C=C2  viability (differentiated SH-SY5Y; MTT; 1 µM; baseline: control): 97.1 ± 1.2%
CCCCn1cc(C(=O)O)c(=O)c2cc(F)c(Nc3cccc(Cl)c3)c([N+](=O)[O-])c21  IC50 (K562; cell growth or viability, SRB): 350 µM
CC[C@H](C)[C@H](NC(=O)[C@H](CCCCN)NC(=O)[C@H](CCCCN)NC(=O)[C@H](Cc1ccccc1)NC(=O)[C@H](CC(C)C)NC(=O)[C@H](CCCCN)NC(=O)[C@H](Cc1c[nH]c2ccccc12)NC(=O)[C@@H](CCCCN)NC(C)=O)C(=O)NCC(=O)N[C@@H](C)C(=O)N[C@H](C(=O)N[C@@H](CC(C)C)C(=O)N[C@H](CCCCN)C(=O)N[C@H](C(=O)N[C@@H](CC(C)C)C(N)=O)C(C)C)C(C)C  LD50 (RAW264.7; cell viability, MTT; 1 h, 37 °C): 5.4 µM
N=C(N)NCCC[C@@H]1NC(=O)[C@H](Cc2csc3ccccc23)NC(=O)[C@@H](Cc2ccccc2)NC(=O)[C@H](Cc2ccccc2)NC(=O)[C@H](CCC(=O)NCCOCCOCC(=O)N[C@@H](CCCCNC(=O)c2ccc3c(c2)C(=O)OC32c3ccc4cc(O)ccc4c3Oc3c2ccc2cc(O)ccc32)C(N)=O)NC(=O)[C@@H](CCCNC(=N)N)NC(=O)[C@H](CCCNC(=N)N)NC(=O)[C@@H](CCCNC(=N)N)NC1=O  cytosolic entry (HeLa; cell penetration, flow cytometry; 5 µM, 2 h, 37 °C, 10% FBS; baseline: CPP12): 375 ± 48%
CO/C(=C\C(=O)c1ccc2occc2c1OC)c1ccccc1  viability (differentiated SH-SY5Y; MTT; 0.1 µM; baseline: control): 102 ± 4.6%
CC(=O)N[C@@H](CO)C(=O)N[C@@H](CC(=O)O)C(=O)N[C@@H](CCCCNC(=O)CCCC[C@@H]1SC[C@@H]2NC(=O)N[C@@H]21)C(=O)N1CCC[C@H]1C(=O)O  cellular uptake (A549; flow cytometry; 40 µg/mL, 60 min, 37 °C; baseline: cells): 65.1 ± 2.3%
C[C@H]1[C@H](OC(=O)CCC(=O)OCCc2ccc(O)cc2)O[C@@H]2O[C@@]3(C)CC[C@H]4[C@H](C)CC[C@@H]1[C@@]24OO3  cytotoxicity (C3PV normal primary fibroblasts; MTT; concentration not given): not toxic
COc1cc2c(c3oc(-c4ccccc4)cc(=O)c13)C=CC(C)(C)O2  viability (differentiated SH-SY5Y; MTT; 100 µM; baseline: control): 98.8 ± 3.7%
CCCCn1cc(C(=O)O)c(=O)c2cc(F)c(Nc3ccccc3Cl)c(N)c21  IC50 (K562; cell growth, SRB; 72 h): 33.1 ± 5.6 mg/L
COc1c(C(=O)/C=C(\O)c2ccccc2)ccc2c1C=CC(C)(C)O2  viability (differentiated SH-SY5Y; MTT; 1 µM; baseline: control): 100 ± 2.5%
COC(=O)C1CN1S(=O)(=O)c1cccc(C)c1 (centres unmarked)  IC50 (Balb/c 3T3 fibroblasts; cytotoxicity, neutral red uptake; DMEM with 5% FBS; 24 h): 190 ± 3 µM

Some of these lines once more:
CC[C@H](C)[C@H](NC(=O)[C@H](CCCCN)NC(=O)[C@H](CC(C)C)NC(=O)[C@H](C)NC(=O)[C@H](CC(C)C)NC(=O)[C@H](CO)NC(=O)[C@H](C)NC(=O)[C@H](CC(C)C)NC(=O)[C@H](Cc1ccccc1)NC(=O)[C@@H]1CCCN1C(=O)[C@H](CC(C)C)NC(=O)[C@H](Cc1ccccc1)NC(=O)[C@H](CCCCN)NC(=O)[C@H](CCCCN)NC(=O)[C@H](CCCCN)NC(=O)[C@H](CCCCN)NC(=O)[C@H](CCCCN)NC(=O)[C@@H](N)CCCCN)C(=O)N[C@@H](CC(C)C)C(N)=O  haemolysis (horse erythrocytes; MIC against Staphylococcus aureus, 2 h, 37 °C; baseline: Triton X-100): 17.8%
CC(=O)N[C@@H](CO)C(=O)N[C@@H](CC(=O)O)C(=O)N[C@@H](CCCCNC(=O)CCCC[C@@H]1SC[C@@H]2NC(=O)N[C@@H]21)C(=O)N1CCC[C@H]1C(=O)O  cellular uptake (A549; flow cytometry; 40 µg/mL, 60 min, 37 °C; baseline: cells): 65.1 ± 2.3%
